Measured values pooled from the literature.
Parts stem from different laboratories: compare values within a part only. Changes are numbered by the printed parent chain.

Series 1
Target: CREBRF, bZIP domain (human)
Technique: DHFR protein complementation
Medium: yeast
Notes: single substitutions, most at no-binding floor
Reference: wild-type JUN-FOS pair
Reading: higher = stronger binding
Parent: JUN, bZIP domain (human); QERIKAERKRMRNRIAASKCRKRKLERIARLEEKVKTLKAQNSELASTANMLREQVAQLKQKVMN; partner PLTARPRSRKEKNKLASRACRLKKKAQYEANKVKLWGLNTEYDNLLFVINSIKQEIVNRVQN
`V56C` gave a binding fitness of -1.44 natural log.
For `K34M`, the binding fitness was -1.52 natural log.
The binding fitness of `K39Y` is reported as -1.58 natural log.
The binding fitness of `S43A` is reported as -1.41 natural log.
With `L52K` the binding fitness was -1.44 natural log.
`Q55C` gave a binding fitness of -1.6 natural log.
`Q55H` gave a binding fitness of -1.5 natural log.
`L52C` has a binding fitness of -1.55 natural log.
`N42D` gave a binding fitness of -1.53 natural log.
For `R30A`, the binding fitness was -1.17 natural log.
The binding fitness of `L52D` is reported as -1.52 natural log.
`I28N` gave a binding fitness of -1.44 natural log.
`R53T` gave a binding fitness of -1.59 natural log.
For `L45N`, the binding fitness was -1.51 natural log.
With `K34P` the binding fitness was -1.51 natural log.
For `T48L`, the binding fitness was -1.38 natural log.

Series 2
Target: RNA binding protein fox-1 homolog 2, RRM domain, GST-SBP tag (RBFOX2, Homo sapiens, UniProt O43251-10, residues 100-194)
Technique: RNA Bind-n-Seq
Molecule type: RNA
Medium: in vitro
Concentration: 365 nM
Notes: natural RNA segment, single round, ends assumed
Reference: no-protein control
Reading: higher = stronger binding
Construct (chain): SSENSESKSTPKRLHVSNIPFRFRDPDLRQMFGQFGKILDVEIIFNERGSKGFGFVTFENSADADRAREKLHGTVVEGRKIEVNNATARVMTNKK
For `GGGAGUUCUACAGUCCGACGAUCCAGUGUGCUGGUUGAAGGCCUGAUGCUGUUAUUCCAGGAGACUGCAGGCCCUUGAUGCCAGGACUCUCUCUACUAAGGCCAGUUCAGGUCUGGGAAAGGGAGCUGGCCUAUGGAAUUCUCGGGUGCCAA`, “RBNS enrichment (R)” read 0.446.
Under “RBNS enrichment (R)”, `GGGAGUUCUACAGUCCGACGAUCUCAAACCCCGACCACCUGCCCAACCUGCUCUCCUCUUGCCACUGCCUCUUCCUCCCUCAUUCCACCUUCCCAUGCCCUGGAUCCAUCAGGCCACUUGAUGACCCCCAACCUGGAAUUCUCGGGUGCCAA` is recorded as 0.863.
`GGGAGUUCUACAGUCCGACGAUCAAGAGGCUGUGCAGCUGGAAAGGAGAGCCCCAAGCCUGAGGCGCUCAGGCCCGCCUCCAACCCCGAGACCUCAGCUGUGCCUUAUCACAGAGAUGGCGCUGCAGGGCCCAUGGAAUUCUCGGGUGCCAA`: “RBNS enrichment (R)” 0.246.
For `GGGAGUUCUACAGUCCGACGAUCAUCUAGUCCUACAAGUAGGGUUUUGCAUACUGUGUUUGCCCCUAGGGUUGUCAGUGCAUCAGAAAUACUUCUAAAUAGUGGUAAAAAUGCACAUGGUUAAUGCACAUGUUUGGAAUUCUCGGGUGCCAA`, “RBNS enrichment (R)” read 0.614.
Under “RBNS enrichment (R)”, `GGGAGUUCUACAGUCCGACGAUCUGGCCAGCUUCAUCGAACAAGUCGCCGUGUCUAUGACUAGAUCUACCCUGACUCUUAUUUGCUUGGGGGAAGGAGUGACUGGAGGAGGAACCUAGGAAGGGAACCAAGGAUGGAAUUCUCGGGUGCCAA` is recorded as 0.684.
Under “RBNS enrichment (R)”, `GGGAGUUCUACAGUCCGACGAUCAUAUAGGAAUAUUAUUUUCCAUAUGAUCUGUUGUAUGGUGUAUAUGCUAUGUGUUCAUUUCGUGUGCAAGUUCAGAGUGUAAUAGAUUUACCCAGAGAAGGUGUUUCUAUUGGAAUUCUCGGGUGCCAA` is recorded as 0.652.
`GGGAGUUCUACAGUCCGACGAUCUUGAAAUGUUCUGUCAAAUGUGUCUCACAUCUACACGUGGCUUGGAGGCUUUUAUGGGGCCCUGUCCAGGUAGAAAAGAAAUGGUAUGUAGAGCUUAGAUUUCCCUAUUGUGGAAUUCUCGGGUGCCAA`: “RBNS enrichment (R)” 0.385.
Under “RBNS enrichment (R)”, `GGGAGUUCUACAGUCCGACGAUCCGAUGCGUGUCUUUCCCACGCAGAGAAGCCCAGUCUCUUCUCUGGAUCUGGGCCUUUGAACAACUGGGGGGCGUUUUCUCCCCCCCAUUGGGACACCAGUCUUCGGUGUGUGGAAUUCUCGGGUGCCAA` is recorded as 0.286.

Series 3
Target: CCND1, cyclin fold, Cln2 fusion (human)
Technique: yeast growth competition, sequencing
Medium: yeast
Notes: strong parent motif
Reference: not given
Reading: higher = stronger binding
Parent: SCAPER docking peptide (human); SNARRSLNFGGST
For `SNARRNLNFGGST [S6N]`, “normalised enrichment score” read 0.852.
For `SNARRSLNFGGSD [T13D]`, “normalised enrichment score” read 2.14.
`SNAYRSLNFGGST [R4Y]` — result for “normalised enrichment score”: -0.108.
For `SNARRSVNFGGST [L7V]`, “normalised enrichment score” read 0.311.
`SNASRSLNFGGST [R4S]`: “normalised enrichment score” -0.328.
Under “normalised enrichment score”, `SNAVRSLNFGGST [R4V]` is recorded as 1.35.
`SNARRSLNFRGST [G10R]`: “normalised enrichment score” -0.0482.
`SNARRSLNFGWST [G11W]` — result for “normalised enrichment score”: 0.289.
Under “normalised enrichment score”, `SNARLSLNFGGST [R5L]` is recorded as 0.639.
Under “normalised enrichment score”, `SNARRSLNEGGST [F9E]` is recorded as 0.0483.
`SNARRSLYFGGST [N8Y]`: “normalised enrichment score” 0.208.
`SNARRSYNFGGST [L7Y]`: “normalised enrichment score” 0.486.
`SNARRRLNFGGST [S6R]`: “normalised enrichment score” 2.88.
`SNARRSLNFGEST [G11E]`: “normalised enrichment score” 1.01.
For `SNARRSLNLGGST [F9L]`, “normalised enrichment score” read 0.142.
Under “normalised enrichment score”, `SNARRSLRFGGST [N8R]` is recorded as -0.013.
`SNARMSLNFGGST [R5M]` — result for “normalised enrichment score”: 0.927.
`SNAMRSLNFGGST [R4M]`: “normalised enrichment score” 0.747.
Under “normalised enrichment score”, `ANARRSLNFGGST [S1A]` is recorded as 0.556.

Series 4
Target: Histone acetyltransferase KAT6A, winged helix 2, GST fusion (KAT6A, Homo sapiens, UniProt Q92794, residues 85-181)
Technique: protein binding microarray
Molecule type: double-stranded DNA, one strand shown
Medium: in vitro
Concentration: not given
Notes: 8-mer, flanks averaged, mean of 2 arrays, mostly near background
Reference: not given
Reading: higher = stronger binding
Construct (chain): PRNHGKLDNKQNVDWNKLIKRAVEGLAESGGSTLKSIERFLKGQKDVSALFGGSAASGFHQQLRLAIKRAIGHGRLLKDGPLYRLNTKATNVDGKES
The E-score of `GGGAGTGA` is reported as 0.115.
`AATGAGAG` has an E-score of -0.184.
`CCCGTGTC` gave an E-score of 0.158.
For `CATGTACA`, the E-score was -0.181.
With `AACGAAGA` the E-score was -0.0345.
The E-score of `AACTCTGT` is reported as 0.0226.
`AGTAATCC` gave an E-score of -0.101.
`CGCACATA` has an E-score of -0.151.
The E-score of `ACGAACGT` is reported as -0.0247.
`CGTCGGAC` has an E-score of -0.0384.
`AGCAGCTG` gave an E-score of -0.00662.
With `AGATGAGG` the E-score was -0.131.
For `AATTGGAG`, the E-score was -0.179.
`CGGCATGC` has an E-score of 0.237.
`CATGACGG` has an E-score of 0.00992.
For `GGTCTACA`, the E-score was -0.0467.
With `CTCTACAC` the E-score was -0.109.
`CCACATGC` gave an E-score of -0.0357.
For `AGCCATGA`, the E-score was 0.0325.
The E-score of `CGGTGTGC` is reported as -0.0597.
`GGGACTTA` gave an E-score of -0.0762.
With `CAGCGCGA` the E-score was 0.0317.
`CTCTAAAG` has an E-score of 0.0368.
`AAACCTCT` has an E-score of -0.0234.
`ACATGAAC` has an E-score of -0.168.

Series 5
Target: Interferon regulatory factor 7, full length, phosphomimetic (IRF7, Homo sapiens, UniProt Q92985, residues 1-503, S101K/S471D/S472D/S475D/S476D/S477D/S483D/S484D/S487D)
Chain of UniProt Q92985 (whole entry, unmodified, looked up): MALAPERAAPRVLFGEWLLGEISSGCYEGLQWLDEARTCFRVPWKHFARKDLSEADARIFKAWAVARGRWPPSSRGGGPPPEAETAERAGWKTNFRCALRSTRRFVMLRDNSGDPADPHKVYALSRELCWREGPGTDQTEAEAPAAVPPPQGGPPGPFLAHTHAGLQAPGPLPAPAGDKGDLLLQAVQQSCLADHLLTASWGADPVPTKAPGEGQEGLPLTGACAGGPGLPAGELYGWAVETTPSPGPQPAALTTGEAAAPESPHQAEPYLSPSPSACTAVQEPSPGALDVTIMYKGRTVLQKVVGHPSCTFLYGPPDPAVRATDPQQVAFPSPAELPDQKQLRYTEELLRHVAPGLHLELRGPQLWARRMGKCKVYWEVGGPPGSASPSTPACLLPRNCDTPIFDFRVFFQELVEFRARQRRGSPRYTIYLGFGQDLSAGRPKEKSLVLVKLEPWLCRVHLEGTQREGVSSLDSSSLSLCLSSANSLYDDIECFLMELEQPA
Technique: protein-binding microarray
Molecule type: double-stranded DNA, one strand shown
Medium: in vitro
Concentration: 250 nM
Notes: 60-bp whole probe
Together with: salmon DNA 0.4 mg/ml
Reference: random background probes
Reading: higher = stronger binding
Shared flanks, not repeated: GCCTAGCAC … GTCTTGATTCGCTTGACGCTGCTG
The log fluorescence of `TTAGGACTGCCACTGCTTTAGTGCTAG` is reported as -0.495 z-score.
For `GACGGTCTCCTTATCCTGATGTGCTAG`, the log fluorescence was 0.263 z-score.
For `TTAGATATCACTCTCGATTAGTGCTAG`, the log fluorescence was 0.353 z-score.
For `TCACATGTCTGTGTCACACTGTGCTAG`, the log fluorescence was 0.0437 z-score.
With `TTAGGACTGGGGACTGGCTTAGTGCTA` the log fluorescence was -0.726 z-score.
For `GACGGTTTCGACTATCAGGACGTGCTA`, the log fluorescence was 5.62 z-score.
`GACGGTTTCCCTATCCTGACGTGCTAG` gave a log fluorescence of 2.83 z-score.
`ATGTTTTTCATTTTGTTCATGTGCTAG` gave a log fluorescence of 4.54 z-score.
With `TTAGATTGCAGTTTCGATTAGTGCTAG` the log fluorescence was 7.74 z-score.
`TCACGGCTCTAAACTCATACTGTGCTA` has a log fluorescence of -0.52 z-score.
For `AAGTTTACCCATCTCCAGTAGTGCTAG`, the log fluorescence was 0.647 z-score.
With `TCAGTTGTGATTCTTTCACTGTGCTAG` the log fluorescence was 0.127 z-score.
For `TTAGGACTGAGTTTCGGTTAGTGCTAG`, the log fluorescence was 7.25 z-score.
`TCAGCTCTTATATACCTGACTGTGCTA` gave a log fluorescence of 0.304 z-score.
For `ATAGATTTCAGACTGGATTAGTGCTAG`, the log fluorescence was -0.0744 z-score.
`TTGGGACTGCTTTTCCTTTAGTGCTAG` gave a log fluorescence of 1.29 z-score.
For `TCAGAATTTACTTTCTACGTGTGCTAG`, the log fluorescence was -0.0415 z-score.
`TTAGGACTGGGACTGGGATAGTGCTAG` has a log fluorescence of -0.288 z-score.
`TTAGGTCTCCTTATCCCTTAGTGCTAG` has a log fluorescence of 0.475 z-score.

Mixed results
`PhoQ, residues 284 288 289 292 302 303 AGHLVA` has a fold induction of 22.9 (PhoP, residues 12 14 15 18 19 TQAIL (Escherichia coli, UniProt P23836); Sort-seq, item: YFP reporter; E. coli; PhoQ-PhoP variant library, together with: 10 µM Mg2+; reference: high Mg2+ state, higher = stronger signaling).

A few entries again (series 2):
Under “RBNS enrichment (R)”, `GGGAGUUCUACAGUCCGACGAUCUCAAACCCCGACCACCUGCCCAACCUGCUCUCCUCUUGCCACUGCCUCUUCCUCCCUCAUUCCACCUUCCCAUGCCCUGGAUCCAUCAGGCCACUUGAUGACCCCCAACCUGGAAUUCUCGGGUGCCAA` is recorded as 0.863.
`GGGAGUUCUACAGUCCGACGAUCAAGAGGCUGUGCAGCUGGAAAGGAGAGCCCCAAGCCUGAGGCGCUCAGGCCCGCCUCCAACCCCGAGACCUCAGCUGUGCCUUAUCACAGAGAUGGCGCUGCAGGGCCCAUGGAAUUCUCGGGUGCCAA`: “RBNS enrichment (R)” 0.246.
For `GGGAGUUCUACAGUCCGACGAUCAUCUAGUCCUACAAGUAGGGUUUUGCAUACUGUGUUUGCCCCUAGGGUUGUCAGUGCAUCAGAAAUACUUCUAAAUAGUGGUAAAAAUGCACAUGGUUAAUGCACAUGUUUGGAAUUCUCGGGUGCCAA`, “RBNS enrichment (R)” read 0.614.
Under “RBNS enrichment (R)”, `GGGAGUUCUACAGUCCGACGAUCUGGCCAGCUUCAUCGAACAAGUCGCCGUGUCUAUGACUAGAUCUACCCUGACUCUUAUUUGCUUGGGGGAAGGAGUGACUGGAGGAGGAACCUAGGAAGGGAACCAAGGAUGGAAUUCUCGGGUGCCAA` is recorded as 0.684.
Under “RBNS enrichment (R)”, `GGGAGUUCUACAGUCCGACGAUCAUAUAGGAAUAUUAUUUUCCAUAUGAUCUGUUGUAUGGUGUAUAUGCUAUGUGUUCAUUUCGUGUGCAAGUUCAGAGUGUAAUAGAUUUACCCAGAGAAGGUGUUUCUAUUGGAAUUCUCGGGUGCCAA` is recorded as 0.652.
`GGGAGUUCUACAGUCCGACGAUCUUGAAAUGUUCUGUCAAAUGUGUCUCACAUCUACACGUGGCUUGGAGGCUUUUAUGGGGCCCUGUCCAGGUAGAAAAGAAAUGGUAUGUAGAGCUUAGAUUUCCCUAUUGUGGAAUUCUCGGGUGCCAA`: “RBNS enrichment (R)” 0.385.
Under “RBNS enrichment (R)”, `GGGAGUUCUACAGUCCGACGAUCCGAUGCGUGUCUUUCCCACGCAGAGAAGCCCAGUCUCUUCUCUGGAUCUGGGCCUUUGAACAACUGGGGGGCGUUUUCUCCCCCCCAUUGGGACACCAGUCUUCGGUGUGUGGAAUUCUCGGGUGCCAA` is recorded as 0.286.
